Experimental data from different studies.
± marks the error that the study gave.

C=C(C)[C@@H]1CC[C@]2(C(=O)OCO/N=[N+](\[O-])N3CCCC3)CC[C@]3(C)[C@H](CC[C@@H]4[C@@]5(C)CC[C@H](OC(C)=O)C(C)(C)[C@@H]5CC[C@]43C)[C@@H]12  late apoptotic cells (B16-F10; Annexin V/PI flow cytometry; 1.0 µM, 36 h): 14.8%
C#CCN(CC(=O)O[C@H]1[C@H](C)O[C@@H](O[C@H]2[C@H](N(C)C)[C@@H](O)[C@H](O[C@H]3[C@@H](CC=O)C[C@@H](C)[C@@H](O[C@H]4CC[C@H](N(C)C)[C@@H](C)O4)/C=C/C=C/C[C@@H](C)OC(=O)C[C@@H](O)[C@@H]3OC)O[C@@H]2C)C[C@@]1(C)O)C(=O)c1ccc(C(F)(F)F)cc1  selectivity index (GES-1 and HGC-27; cell growth, CCK-8; 72 h; relative to: IC50 GES-1 over HGC-27): 10.3
COc1cc(CNC(=O)C[C@H](C)CCC=C(C)C)ccc1OCc1cn(-c2ccccc2F)nn1  growth (A549/ATCC; SRB; 10 µM, 48 h): 80.6%
Brc1ccc(Nc2nc(NN=Cc3c[nH]c4ccccc34)nc(N3CCOCC3)n2)cc1  LC3-II level (A549 and SK-BR-3; autophagy, Western blot; 3 µM, 20 h): increased
COc1cc(CNC(=O)C[C@H](C)CCC=C(C)C)ccc1OCc1cn(-c2cccc([N+](=O)[O-])c2)nn1  growth (786-0; SRB; 10 µM, 48 h): 71.4%
CCN1CCN(Cc2ccc(C(=O)Nc3ccc(C)c(NCc4cnc5[nH]ccc5c4OC)c3)cc2C(F)(F)F)CC1  GI50 (SW480, overexpressing wild type; cell proliferation; 48 h): 2.76 µM
CCc1cccc(CC)c1NC(=O)c1nn(C)c2c1CCc1cnc(Nc3ccc(N4CCN(C)CC4)cc3OC)nc1-2  concentration for full checkpoint override (HeLa I598F H2B-YFP; mitotic checkpoint, live cell imaging; with: nocodazole): 200 nM
CN(C)c1cc2ccccc2c(N)n1  mRNA stability (LX-2; actinomycin D chase, qPCR, item: VEGFA; concentration not given, 6 h pretreatment): no effect
COc1ccc(CC2COC(=O)C2Cc2ccc3c(c2)OCO3)cc1OC (mixture of isomers)  protein level (A2780cis (cisplatin-resistant); Western blot, item: topoisomerase II; 3.25 µM, 48 and 72 h; relative to: 0 h control): decreased
Cc1cc2[nH]c(C(=O)Nc3ccccc3C)c(CN3CCOCC3)c2s1  inhibition (HEK293; cell growth or viability; 100 µM): < 50%
COc1cc(CNC(=O)C[C@H](C)CCC=C(C)C)ccc1OCc1cn(-c2ccc(C#N)cc2)nn1  growth percent (IGROV-1 ovarian cancer cells; SRB; 10 µM, 48 h): 81.5%
Cc1nn(-c2ccc(S(=O)(=O)N[C@H](CO)CC(C)C)cc2)c2nn3nnnc3nc12  mitochondrial membrane potential (HT-29; MitoTracker Red; 2 µM, 24 h; relative to: untreated): 78.8 ± 3.32%
CC(=O)N[C@@H](CCCNC(=N)N)C(=O)N[C@@H](CCCNC(=N)N)C(=O)N[C@@H](CCCNC(=N)N)C(=O)N[C@@H](CCCNC(=N)N)C(=O)N[C@@H](CCCNC(=N)N)C(=O)N[C@@H](CCCNC(=N)N)C(=O)N[C@@H](CCCNC(=N)N)C(=O)N[C@@H](CCCNC(=N)N)C(=O)N[C@@H](CCCNC(=N)N)C(=O)N[C@@H](CCCNC(=N)N)C(=O)N[C@@H](CCCNC(=N)N)C(=O)N[C@@H](CSSCCC(=O)NCC(=O)N1CCC[C@H]1C(=O)N[C@@H](Cc1c[nH]cn1)C(=O)N[C@@H](C)C(=O)N[C@H](C(=O)N[C@@H](C)C(=O)N[C@H](C(=O)N[C@@H](C)C(=O)N[C@@H](C)C(=O)NCC(=O)N1CCC[C@H]1C(=O)N[C@@H](Cc1c[nH]cn1)C(=O)N[C@@H](CCC(=O)O)C(=O)N[C@@H](CCC(=O)O)C(N)=O)C(C)C)C(C)C)C(N)=O  NFAT nuclear translocation (HeLa, GFP-NFAT stably transfected; live-cell confocal microscopy; 500 nM, 2 h, with: ionomycin, 10 min): no effect
COc1cc(CNC(=O)C[C@H](C)CCC=C(C)C)ccc1OCc1cn(-c2ccc([N+](=O)[O-])cc2)nn1  growth (786-0; SRB; 10 µM, 48 h): 97%
O=C(Nc1cc2nc(-c3cccc(C(F)(F)F)c3)cn2cn1)N1CC[C@H](F)C1  EC50 (CRL8155; cell growth or viability; 48 h): > 50 µM
COc1cc(CNC(=O)C[C@H](C)CCC=C(C)C)ccc1O  growth percent (MOLT-4 leukaemia cells; SRB; 10 µM, 48 h): 83.4%
CCN(c1ncnc2sc(C)c(C)c12)C1CCC(N(C)C)CC1 (stereo not shown)  TNF production (human white blood cells; concentration not given, 1 h pretreatment, with: LPS 1 µg/mL or CpG 0.5 µM): inactive
CCOC(=O)c1c(C(C)C)oc2nc(N3CCOCC3)ccc12  EC50 (CRL8155; cell growth or viability; 48 h): > 50 µM
CCC/C(=C\C1=C(F)C(=O)c2ccccc2C1=O)C(=O)N(CC)CC  EC50 (Pa03C cells; HIF1α reporter gene, luciferase reporter; 24 h, 1% oxygen hypoxia): 12.6 ± 2.11 µM
O=Cc1c(O)ccc2ccccc12  log2 fold change (HUVEC; RNA sequencing, item: SLC6A9; 75 µM, 24 h; relative to: DMSO): 3.15
C=C1C(=O)OC2C1CCC1(C)CC1CCC1(C)OC21 (stereo not shown)  colony number (TEX; methylcellulose colony; 2.5 µM, 11 d): 7 ± 5.1
CC(=O)[C@@]1(O)CC[C@H]2[C@@H]3CCC4=CC(=O)CC[C@]4(C)[C@H]3CC[C@@]21C  cell growth (MDA-MB-231, GPR126-silenced, overexpressing W1081A mutant; inhibitor; 10 nM, 72 h): inhibited
CC(C)c1cccc(C(C)C)c1N1CCN(c2c(C(C)C)cccc2C(C)C)C1=[Se].[Cl][Au]  resistance factor (LoVo MDR; MTT; relative to: LoVo MDR over LoVo): 1
COc1cc2c(C=C3C(=O)Nc4ccccc43)c[nH]c2cc1C  TGI (ovarian cancer subpanel of NCI-60; 48 h): 7.76 µM
CC(=O)O[C@H]1C(=O)[C@]2(C)[C@@H](OC(=O)[C@H](N)CSC3CC(=O)N(CCC(=O)Nc4ccc(-c5ccc(/N=N/c6ccc7c(S(=O)(=O)O)cc(S(=O)(=O)O)c(N)c7c6O)c(C)c5)cc4C)C3=O)C[C@H]3OC[C@@]3(OC(C)=O)[C@H]2[C@H](OC(=O)c2ccccc2)[C@]2(O)C[C@H](OC(=O)[C@H](O)[C@@H](NC(=O)c3ccccc3)c3ccccc3)C(C)=C1C2(C)C (stereo partly shown)  cellular uptake (HEK293T; flow cytometry; concentration not given, 4 h): 1.5%
O=C1CCC(N2C(=O)c3ccc(N4CCC(C(=O)N5CCC(CCN6CCC(CNC(=O)c7cccc(-c8noc(C(F)(F)F)n8)c7)(c7nc(-c8ccccc8)cs7)CC6)CC5)CC4)cc3C2=O)C(=O)N1 (stereo not shown)  significantly changed genes (DHL6; RNA sequencing; 3 µM, 12 h): 1830 genes
COc1ccc2c(c1)/C(=N\Nc1nnc3n1N=C(c1ccccc1)CS3)C(=O)N2  inhibition (SR; cell growth or viability, SRB; 10 µM): 64%
COc1ccc([C@@H]2CC(=O)c3c(O)cc(O[C@@H]4O[C@H](CO[C@@H]5O[C@@H](C)[C@H](O)[C@@H](O)[C@H]5O)[C@@H](O[C@H]5O[C@H](CO)[C@@H](O)[C@H](O)[C@H]5O)[C@H](O)[C@H]4O)cc3O2)cc1O  viability (A549; cell growth or viability, MTS; 150 µg/mL, 24 h): 31.9%
O=S(=O)(CC(F)(F)F)Nc1ccc(Oc2ncccc2-c2ccnc(N[C@H]3CCCNC3)n2)c2ccccc12  cleaved caspase-3 level (INS1 cells with Dox-inducible IRE1α; immunoblot; 20 µM, with: 5 ng/mL doxycycline): decreased
C=CCc1ccc(O)c(-c2cc(CC=C)ccc2OCCCCCCCCCC[P+](c2ccccc2)(c2ccccc2)c2ccccc2)c1  LC3-II/LC3-I ratio (UACC-62; autophagy, immunoblotting; 0.5 µM, 48 h): 6.1
CC/C=C\C/C=C\C/C=C\C/C=C\C/C=C\C/C=C\CCC(=O)Nc1ccn(C2OC(CO)C(O)C2(F)F)c(=O)n1 (stereo not shown)  GI50 (786-0; cell growth or viability, SRB): < 0.01 µM
COc1cc(CNC(=O)C[C@H](C)CCC=C(C)C)ccc1OCc1cn(-c2ccccc2[N+](=O)[O-])nn1  growth (MDA-MB-231/ATCC; SRB; 10 µM, 48 h): 71.9%
Cc1cccc(NCC(=O)Nc2nc3ccccc3s2)c1  inhibition (normal fibroblasts; 100 µM): 17.7%
CN1C(=CC2=C(O)C(=CC3=[N+](CCC[N+](C)(C)C)c4ccc(F)cc4C3(C)C)C2=O)C(C)(C)c2ccccc21  cellular uptake (ID8; 2 µM, 30 min, 4 °C): decreased
O=C(N1CCCC1)n1cc(-c2ccc(-c3ccccc3)cc2)nn1  SILAC ratio (mouse T-cells; N-terminal labeled proteins, N-terminal enrichment proteomics, item: PAIP2; 1 nM, 6 h; relative to: DMSO): 1.06 ± 0.14
COc1cc(CNC(=O)C[C@H](C)CCC=C(C)C)ccc1OCc1cn(-c2ccc(Cl)cc2Cl)nn1  growth (MDA-MB-231/ATCC; SRB; 10 µM, 48 h): 59.7%
Cc1cccc(C)c1OCC(=O)N[C@@H](Cc1ccccc1)[C@H](C[C@H](Cc1ccccc1)NC(=O)[C@H](C(C)C)N1CCCNC1=O)OC(=O)[C@H](CC(C)C)NC(=O)[C@@H](N)Cc1cnc[nH]1  remaining uptake (cell line; transport, inhibitor; 25 µM, with: [3H]-GlySar; relative to: untreated): ~30%

Excerpt of the above:
COc1cc2c(C=C3C(=O)Nc4ccccc43)c[nH]c2cc1C  TGI (ovarian cancer subpanel of NCI-60; 48 h): 7.76 µM
CC(=O)O[C@H]1C(=O)[C@]2(C)[C@@H](OC(=O)[C@H](N)CSC3CC(=O)N(CCC(=O)Nc4ccc(-c5ccc(/N=N/c6ccc7c(S(=O)(=O)O)cc(S(=O)(=O)O)c(N)c7c6O)c(C)c5)cc4C)C3=O)C[C@H]3OC[C@@]3(OC(C)=O)[C@H]2[C@H](OC(=O)c2ccccc2)[C@]2(O)C[C@H](OC(=O)[C@H](O)[C@@H](NC(=O)c3ccccc3)c3ccccc3)C(C)=C1C2(C)C (stereo partly shown)  cellular uptake (HEK293T; flow cytometry; concentration not given, 4 h): 1.5%
O=C1CCC(N2C(=O)c3ccc(N4CCC(C(=O)N5CCC(CCN6CCC(CNC(=O)c7cccc(-c8noc(C(F)(F)F)n8)c7)(c7nc(-c8ccccc8)cs7)CC6)CC5)CC4)cc3C2=O)C(=O)N1 (stereo not shown)  significantly changed genes (DHL6; RNA sequencing; 3 µM, 12 h): 1830 genes
